Assay results of several laboratories.
Each line is one published result; not all experiments were run side by side. ± marks the error that the study gave.
Genome polyprotein protease: Genome polyprotein, protease (Coxsackievirus B3, UniProt P03313)
UniProt P03313, sequence (whole entry, looked up): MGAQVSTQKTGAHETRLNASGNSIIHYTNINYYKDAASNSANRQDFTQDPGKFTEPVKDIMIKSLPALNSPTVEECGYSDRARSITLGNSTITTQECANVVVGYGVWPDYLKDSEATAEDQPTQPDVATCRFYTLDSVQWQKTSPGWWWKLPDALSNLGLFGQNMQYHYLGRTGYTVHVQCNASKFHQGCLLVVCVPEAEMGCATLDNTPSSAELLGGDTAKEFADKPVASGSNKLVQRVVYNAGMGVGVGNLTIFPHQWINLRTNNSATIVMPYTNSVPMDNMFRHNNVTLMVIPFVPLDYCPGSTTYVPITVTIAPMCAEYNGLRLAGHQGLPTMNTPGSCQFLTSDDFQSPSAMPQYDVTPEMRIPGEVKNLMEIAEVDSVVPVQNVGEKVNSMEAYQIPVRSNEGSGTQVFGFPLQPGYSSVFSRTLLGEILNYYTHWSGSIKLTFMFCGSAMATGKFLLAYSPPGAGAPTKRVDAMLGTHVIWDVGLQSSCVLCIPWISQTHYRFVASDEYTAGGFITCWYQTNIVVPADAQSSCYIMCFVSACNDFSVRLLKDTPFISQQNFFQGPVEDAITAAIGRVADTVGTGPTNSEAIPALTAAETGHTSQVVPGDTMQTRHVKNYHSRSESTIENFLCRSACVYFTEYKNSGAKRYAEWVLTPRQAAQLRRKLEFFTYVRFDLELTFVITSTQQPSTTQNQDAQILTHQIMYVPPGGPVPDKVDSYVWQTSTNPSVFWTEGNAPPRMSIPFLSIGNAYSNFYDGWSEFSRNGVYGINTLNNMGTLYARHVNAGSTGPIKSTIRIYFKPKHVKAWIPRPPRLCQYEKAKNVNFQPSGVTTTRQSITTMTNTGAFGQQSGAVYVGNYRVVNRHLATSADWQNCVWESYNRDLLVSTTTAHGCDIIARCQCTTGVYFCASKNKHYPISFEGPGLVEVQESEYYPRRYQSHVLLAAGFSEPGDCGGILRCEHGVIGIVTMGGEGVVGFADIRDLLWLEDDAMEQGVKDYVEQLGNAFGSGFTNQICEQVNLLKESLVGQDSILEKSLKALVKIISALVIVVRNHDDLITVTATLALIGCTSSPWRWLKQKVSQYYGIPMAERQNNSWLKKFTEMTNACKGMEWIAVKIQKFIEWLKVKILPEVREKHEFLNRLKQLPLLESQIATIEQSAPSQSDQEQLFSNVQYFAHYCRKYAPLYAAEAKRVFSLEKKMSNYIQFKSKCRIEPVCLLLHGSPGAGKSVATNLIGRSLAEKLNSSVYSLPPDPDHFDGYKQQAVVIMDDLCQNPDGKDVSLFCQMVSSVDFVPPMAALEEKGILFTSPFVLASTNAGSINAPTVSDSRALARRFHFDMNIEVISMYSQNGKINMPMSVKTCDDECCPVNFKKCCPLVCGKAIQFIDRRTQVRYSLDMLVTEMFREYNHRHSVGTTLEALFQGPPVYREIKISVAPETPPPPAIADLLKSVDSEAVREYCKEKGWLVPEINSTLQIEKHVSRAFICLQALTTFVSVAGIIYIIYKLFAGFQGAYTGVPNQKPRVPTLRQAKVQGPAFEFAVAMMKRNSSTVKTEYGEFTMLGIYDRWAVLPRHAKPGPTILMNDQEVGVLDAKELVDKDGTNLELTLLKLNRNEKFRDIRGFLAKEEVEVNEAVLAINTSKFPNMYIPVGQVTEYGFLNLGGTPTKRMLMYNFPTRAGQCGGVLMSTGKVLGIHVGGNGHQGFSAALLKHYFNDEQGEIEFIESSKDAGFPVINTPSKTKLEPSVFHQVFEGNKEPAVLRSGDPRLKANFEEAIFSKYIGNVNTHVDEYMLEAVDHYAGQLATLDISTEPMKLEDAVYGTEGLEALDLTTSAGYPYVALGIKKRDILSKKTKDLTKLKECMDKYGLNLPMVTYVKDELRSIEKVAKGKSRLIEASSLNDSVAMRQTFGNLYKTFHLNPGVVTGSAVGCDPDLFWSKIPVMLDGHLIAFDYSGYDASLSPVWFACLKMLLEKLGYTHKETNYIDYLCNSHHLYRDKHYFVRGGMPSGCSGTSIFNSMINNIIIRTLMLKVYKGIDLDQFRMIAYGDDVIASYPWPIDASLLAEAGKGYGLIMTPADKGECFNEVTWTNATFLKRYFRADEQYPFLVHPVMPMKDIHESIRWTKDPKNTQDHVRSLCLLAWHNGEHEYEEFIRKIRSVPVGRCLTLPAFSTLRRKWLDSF
DNA gyrase subunit A/DNA gyrase subunit B: DNA gyrase subunit A/DNA gyrase subunit B (Mycobacterium tuberculosis, UniProt P9WG45+P9WG47)
UniProt P9WG45, sequence (whole entry, looked up): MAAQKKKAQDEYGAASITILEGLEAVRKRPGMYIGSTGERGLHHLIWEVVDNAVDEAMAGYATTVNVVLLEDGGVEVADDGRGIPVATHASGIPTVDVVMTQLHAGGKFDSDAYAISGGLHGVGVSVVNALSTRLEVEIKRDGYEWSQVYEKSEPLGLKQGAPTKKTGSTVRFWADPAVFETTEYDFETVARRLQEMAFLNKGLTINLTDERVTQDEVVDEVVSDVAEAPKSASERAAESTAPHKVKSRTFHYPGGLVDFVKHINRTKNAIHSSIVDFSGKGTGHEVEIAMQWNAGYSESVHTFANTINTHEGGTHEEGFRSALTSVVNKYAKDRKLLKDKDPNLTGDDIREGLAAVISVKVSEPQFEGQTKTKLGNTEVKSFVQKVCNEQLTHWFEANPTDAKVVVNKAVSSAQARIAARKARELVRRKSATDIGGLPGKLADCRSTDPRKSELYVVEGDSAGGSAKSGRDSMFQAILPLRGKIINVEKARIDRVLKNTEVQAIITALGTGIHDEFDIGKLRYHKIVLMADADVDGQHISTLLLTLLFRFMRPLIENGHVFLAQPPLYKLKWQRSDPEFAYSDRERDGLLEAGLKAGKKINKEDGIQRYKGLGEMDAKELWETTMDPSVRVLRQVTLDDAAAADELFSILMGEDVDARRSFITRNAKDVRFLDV
UniProt P9WG47, sequence (whole entry, looked up): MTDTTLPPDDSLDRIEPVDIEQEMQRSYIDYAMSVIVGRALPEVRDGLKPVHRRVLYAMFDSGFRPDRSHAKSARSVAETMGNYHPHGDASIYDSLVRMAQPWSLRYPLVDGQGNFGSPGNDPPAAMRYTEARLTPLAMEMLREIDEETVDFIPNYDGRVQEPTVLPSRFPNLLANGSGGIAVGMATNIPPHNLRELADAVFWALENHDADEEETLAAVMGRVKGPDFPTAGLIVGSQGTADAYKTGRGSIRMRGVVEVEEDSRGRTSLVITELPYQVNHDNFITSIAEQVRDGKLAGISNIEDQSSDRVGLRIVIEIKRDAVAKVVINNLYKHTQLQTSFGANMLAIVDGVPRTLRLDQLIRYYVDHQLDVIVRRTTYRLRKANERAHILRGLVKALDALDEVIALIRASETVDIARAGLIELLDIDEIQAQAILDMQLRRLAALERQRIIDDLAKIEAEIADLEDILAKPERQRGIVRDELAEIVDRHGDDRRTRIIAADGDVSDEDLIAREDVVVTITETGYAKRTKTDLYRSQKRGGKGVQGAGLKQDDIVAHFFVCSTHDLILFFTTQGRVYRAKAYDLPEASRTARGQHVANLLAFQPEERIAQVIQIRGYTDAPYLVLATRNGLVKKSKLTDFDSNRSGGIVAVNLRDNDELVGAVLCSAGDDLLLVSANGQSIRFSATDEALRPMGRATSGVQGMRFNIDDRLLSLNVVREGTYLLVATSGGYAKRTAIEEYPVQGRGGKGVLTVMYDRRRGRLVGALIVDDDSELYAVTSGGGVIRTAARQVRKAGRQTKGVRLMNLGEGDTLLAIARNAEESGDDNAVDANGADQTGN
Dihydrolipoyl dehydrogenase: Dihydrolipoyl dehydrogenase (Mycobacterium tuberculosis, UniProt P9WHH9)
UniProt P9WHH9, sequence (whole entry, looked up): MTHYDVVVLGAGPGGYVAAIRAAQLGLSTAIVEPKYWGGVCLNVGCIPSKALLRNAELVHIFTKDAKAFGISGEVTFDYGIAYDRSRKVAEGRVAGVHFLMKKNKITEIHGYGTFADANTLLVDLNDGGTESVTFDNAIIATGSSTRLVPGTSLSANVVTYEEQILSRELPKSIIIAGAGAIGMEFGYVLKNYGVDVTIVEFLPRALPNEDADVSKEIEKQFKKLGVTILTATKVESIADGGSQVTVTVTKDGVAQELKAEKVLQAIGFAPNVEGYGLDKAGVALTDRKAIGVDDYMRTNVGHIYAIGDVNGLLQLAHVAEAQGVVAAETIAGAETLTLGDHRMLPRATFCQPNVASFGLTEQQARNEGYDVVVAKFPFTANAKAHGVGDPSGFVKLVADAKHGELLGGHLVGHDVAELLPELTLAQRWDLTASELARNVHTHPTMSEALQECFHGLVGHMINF
rep main protease: Replicase polyprotein 1ab, main protease (rep, Human coronavirus HKU1, UniProt P0C6X2)
Replicase polyprotein 1ab main protease: Replicase polyprotein 1ab, main protease (Human coronavirus OC43, UniProt P0C6X6)
DNA ligase: DNA ligase (Enterobacteria phage T4, UniProt P00970)
UniProt P00970, sequence (whole entry, looked up): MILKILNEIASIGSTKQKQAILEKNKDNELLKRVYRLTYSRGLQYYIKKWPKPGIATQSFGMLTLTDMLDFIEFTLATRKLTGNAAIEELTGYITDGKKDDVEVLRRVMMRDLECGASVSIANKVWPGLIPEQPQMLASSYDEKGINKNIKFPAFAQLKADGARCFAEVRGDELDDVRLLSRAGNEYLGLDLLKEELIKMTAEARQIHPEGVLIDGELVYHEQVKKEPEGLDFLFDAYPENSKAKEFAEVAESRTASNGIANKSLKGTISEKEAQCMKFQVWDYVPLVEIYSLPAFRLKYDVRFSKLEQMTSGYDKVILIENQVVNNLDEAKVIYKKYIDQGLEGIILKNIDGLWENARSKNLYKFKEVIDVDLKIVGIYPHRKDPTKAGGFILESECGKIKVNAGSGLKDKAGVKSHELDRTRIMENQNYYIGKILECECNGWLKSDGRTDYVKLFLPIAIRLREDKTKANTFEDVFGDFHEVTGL
Adenosylmethionine-8-amino-7-oxononanoate aminotransferase: Adenosylmethionine-8-amino-7-oxononanoate aminotransferase (Mycobacterium tuberculosis, UniProt P9WQ81)
UniProt P9WQ81, sequence (whole entry, looked up): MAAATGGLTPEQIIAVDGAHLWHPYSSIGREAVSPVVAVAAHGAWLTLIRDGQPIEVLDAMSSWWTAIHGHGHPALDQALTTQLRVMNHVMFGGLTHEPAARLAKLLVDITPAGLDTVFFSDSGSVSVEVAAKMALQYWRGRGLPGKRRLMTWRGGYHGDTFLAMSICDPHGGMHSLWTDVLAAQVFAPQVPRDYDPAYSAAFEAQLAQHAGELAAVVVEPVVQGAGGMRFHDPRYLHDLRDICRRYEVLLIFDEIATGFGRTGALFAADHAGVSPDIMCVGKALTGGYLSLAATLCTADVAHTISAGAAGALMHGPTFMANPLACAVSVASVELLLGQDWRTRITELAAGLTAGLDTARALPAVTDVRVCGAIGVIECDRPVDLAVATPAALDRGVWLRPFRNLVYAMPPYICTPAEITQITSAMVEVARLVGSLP

`CC1(C)OC2OC(C(CCO)NC(=O)Nc3cccc(NC(=O)NC(CCO)C4OC5OC(C)(C)OC5C4OCc4ccccc4)c3)C(OCc3ccccc3)C2O1` (centres unmarked) has an IC50 of 85000 ± 1300 nM (DNA ligase A (Mycobacterium tuberculosis, UniProt P9WNV1); enzyme activity, inhibitor; 1 h, 25 °C, 10% DMSO, with: 50 µM NAD+).
With `C=C(C)C1C2OC(=O)C1C1(O)CC3OC34C(=O)OC2C14C` (centres unmarked) the IC50 was 2230 nM (GABA-A receptor; GABA-A site (alpha1/beta2 interface) (Homo sapiens, UniProt P14867+P47870); ion current, antagonist, two-electrode voltage clamp; oocytes).
`CC(C)C[C@@H]1NC(=O)CN(C)C(=O)[C@H](Cc2c[nH]c3ccccc23)NC(=O)[C@H](CCC(=O)O)NC(=O)[C@H](Cc2ccccc2)N(C)C(=O)[C@H](Cc2ccccc2)NC(=O)CSC[C@@H](C(N)=O)NC(=O)[C@H](CCCCN)NC(=O)[C@H](C(C)C)NC(=O)[C@H](Cc2ccc(O)cc2)NC(=O)[C@H](Cc2ccc(O)cc2)NC(=O)[C@H](C(C)C)NC(=O)[C@H](Cc2ccccc2)N(C)C(=O)[C@H](CCCNC(=N)N)NC1=O` has an IC50 of 20 nM (AT-rich interactive domain-containing protein 1B (ARID1B, Homo sapiens, UniProt Q8NFD5); binding, TR-FRET; 1% DMSO, with: tracer 6-cy5 10 nM).
For `CCOCC1C(c2ccc(Cl)c(Cl)c2)CC2CCC1N2C` (centres unmarked), the IC50 was 204 nM (Sodium-dependent dopamine transporter (SLC6A3, Homo sapiens, UniProt Q01959, S422A); transporter uptake, inhibitor, radiometric).
With `COc1ccc2c(c1)CCC1C2=NN(C(C)=O)C1c1cccc(I)c1` (centres unmarked) the IC50 was 7000 nM (Genome polyprotein protease; enzyme activity, inhibitor).
The IC50 of `CC(C)c1nc2cc(O)ccc2c(=O)n1-c1ccc(C#N)cc1` is reported as 350 nM (Transient receptor potential cation channel subfamily V member 1 (TRPV1, Homo sapiens, UniProt Q8NER1); calcium signal, antagonist, fluorescence).
The IC50 of `COc1cc(N2CCN(C)CC2)ccc1Nc1ncc2c(n1)N(C1CCC1)C(=O)N(c1c(C)cccc1C)C2` is reported as 1.9 nM (Serine/threonine-protein kinase SIK1 (SIK1, Homo sapiens, UniProt P57059); inhibitor).
`CC1C(=NOCc2cc(-c3ccc(Cl)cc3)no2)C(C)C(c2ccc(Br)cc2)OC1c1ccc(Br)cc1` (centres unmarked) has an IC50 of 19200 nM (DNA gyrase subunit A/DNA gyrase subunit B).
`Cc1cnc(N)c(S(=O)(=O)N(C)CC(=O)Nc2ccc(OCCN(C)C)c(Cl)c2)c1` gave an IC50 of 110 nM (Dihydrolipoyl dehydrogenase; enzyme activity, inhibitor; with: 50 nM enzyme).
`C=CC(=O)NC(CC(=C)C)C(=O)N1CC(C(=O)NC(Cc2ccccc2)C(=O)NC)C(c2cccc(C(F)(F)F)c2)C1` (centres unmarked) has an IC50 of 19500 nM (rep main protease).
The IC50 of `CCC[C@H](NC(=O)[C@H](CC(C)C)NC(=O)OCc1ccccc1)C(=O)C(=O)NCc1ccccn1` is reported as 340 nM (Replicase polyprotein 1ab main protease; enzyme activity, inhibitor).
For `CCOC(=O)CC(NC(=O)Nc1ccc(NC(=O)NC(CC(=O)OCC)C2OC3OC(C)(C)OC3C2OCc2ccccc2)cc1)C1OC2OC(C)(C)OC2C1OCc1ccccc1` (centres unmarked), the IC50 was 55000 nM (DNA ligase; enzyme activity, inhibitor, radiometric).
The IC50 of `C=CC(=O)NC(CC(=C)C)C(=O)N1CC(C(=O)NC(C(=O)NC)C(C)CC)C(c2cccc(C(F)(F)F)c2)C1` (centres unmarked) is reported as greater than 100000 nM (rep main protease).
For `C=C1CC(COc2ccc3c(C)cc(=O)oc3c2)(c2ccccc2)OC1=O` (centres unmarked), the IC50 was 28900 ± 4110 nM (Adenosylmethionine-8-amino-7-oxononanoate aminotransferase; inhibitor, biochemical).
`CC1(C)OC2OC(C(CCO)NCCCCCCCCCCNC(CCO)C3OC4OC(C)(C)OC4C3OCc3ccccc3)C(OCc3ccccc3)C2O1` (centres unmarked) has an IC50 of 40000 nM (DNA ligase; enzyme activity, inhibitor, radiometric).
`COc1cc(CN2CCN(C)CC2)ccc1Nc1ncc2c(n1)N(C13CC4CC(CC(C4)C1)C3)C(=O)N(c1c(C)cccc1C)C2` gave an IC50 of greater than 500 nM (Serine/threonine-protein kinase SIK3 (SIK3, Homo sapiens, UniProt Q9Y2K2); enzyme activity, inhibitor).
`CC[C@H](C)[C@H](NC(=O)[C@H](CO)NC(=O)[C@H](Cc1ccc(O)cc1)NC(=O)[C@H](CC(=O)O)NC(=O)[C@H](CO)NC(=O)[C@@H](NC(=O)[C@H](Cc1ccccc1)NC(=O)[C@@H](NC(=O)CNC(=O)[C@@H]1CCCN1C(=O)[C@H](C)NC(=O)[C@@H](N)Cc1ccc(O)cc1)[C@@H](C)O)[C@@H](C)CC)C(=O)N[C@@H](C)C(=O)N[C@@H](CCSC)C(=O)N[C@@H](CC(=O)O)C(=O)N[C@@H](CCCCN)C(=O)N[C@H](C(=O)N[C@@H](CCCNC(=N)N)C(=O)N[C@@H](CCC(N)=O)C(=O)N[C@@H](CCC(N)=O)C(=O)N[C@@H](CC(=O)O)C(=O)N[C@@H](Cc1ccccc1)C(=O)N[C@H](C(=O)N[C@@H](CC(N)=O)C(=O)N[C@@H](Cc1c[nH]c2ccccc12)C(=O)N[C@@H](CC(C)C)C(=O)N[C@@H](CC(C)C)C(=O)N[C@@H](C)C(=O)N[C@@H](CCC(N)=O)C(=O)N[C@@H](CCCCN)C(=O)NCC(=O)N[C@@H](CCCCN)C(=O)N[C@@H](CCCCN)C(=O)N[C@@H](CC(N)=O)C(=O)N[C@@H](CC(=O)O)C(=O)N[C@@H](Cc1c[nH]c2ccccc12)C(=O)N[C@@H](CCCCN)C(=O)N[C@@H](Cc1c[nH]cn1)C(=O)N[C@@H](CC(N)=O)C(=O)N[C@@H](CC(C)C)C(=O)N[C@H](C(=O)N[C@@H](CCC(N)=O)C(=O)O)[C@@H](C)O)C(C)C)[C@@H](C)CC` gave an IC50 of 7.94 nM (Gastric inhibitory polypeptide receptor (Mus musculus, UniProt Q0P543); 4 h, 4 °C).
`CC(=O)Nc1ccc(/C=N/NC(=S)Nc2cccc3cccnc23)cc1` gave an IC50 of 272700 ± 1150 nM (Adenosylmethionine-8-amino-7-oxononanoate aminotransferase; inhibitor, biochemical).
`O=c1[nH]c2cc(Cl)cc(Cl)c2c(O)c1Sc1nnnn1-c1ccc(O)cc1` gave an IC50 of greater than 50000 nM (Genome polyprotein protease; enzyme activity, inhibitor).
`COc1ccc(NC(=O)CN(C)S(=O)(=O)c2cc(C)cnc2N)cc1Cl` gave an IC50 of 104 nM (Dihydrolipoyl dehydrogenase; enzyme activity, inhibitor).
With `CCCCn1c(NCc2ccc(N3N=C(c4ccccc4)CC3c3ccccc3)cc2)nc2ccccc21` (centres unmarked) the IC50 was 5400 nM (Genome polyprotein protease; enzyme activity, inhibitor).
`CC1C(=NOCc2cc(-c3ccc(Cl)cc3)no2)C(C)C(c2ccc(Cl)cc2)OC1c1ccc(Cl)cc1` (centres unmarked) has an IC50 of 18700 nM (DNA gyrase subunit A/DNA gyrase subunit B).
The IC50 of `CC(C)[C@H](NC(=O)N[C@H](C(=O)N[C@H]1/C=C/CCNC(=O)/C=C/[C@H](C(C)C)NC1=O)C(C)C)C(=O)O` is reported as 28 nM (Proteasome subunit beta type-9 (Mus musculus, UniProt P28076); inhibitor).
With `Cc1ccccc1N1C(=O)/C(=C/c2ccc(OCc3cccc(C(=O)O)c3)cc2)C(=O)NC1=S` the IC50 was 7560 nM (Tyrosine-protein phosphatase non-receptor type 22 (Ptpn22, Mus musculus, UniProt P29352); phosphatase activity, inhibitor).
For `Cc1cnc(N)c(S(=O)(=O)N(C)CC(=O)Nc2ccc(N3CCOCC3)c(Cl)c2)c1`, the IC50 was 56 nM (Dihydrolipoyl dehydrogenase; enzyme activity, inhibitor; with: 50 nM enzyme).
For `C=CC(=O)N1CCN(c2cc(-c3ccc(C4CCC4)cc3)ncc2C(=O)N[C@H](Cc2ccccc2)C(=O)NC)C(C)C1` (some centres unmarked), the IC50 was greater than 100000 nM (rep main protease).
`COC(=O)C1C(c2ccc(C)cc2)CC2CCC1N2CC#CC[18F]` (centres unmarked) has an IC50 of 20.1 nM (Sodium-dependent dopamine transporter (SLC6A3, Homo sapiens, UniProt Q01959); transporter uptake, inhibitor, radiometric).
The IC50 of `Cc1cnc(N)c(S(=O)(=O)N(C)CC(=O)Nc2ccn(C)c(=O)c2)c1` is reported as 165 nM (Dihydrolipoyl dehydrogenase; enzyme activity, inhibitor; with: 50 nM enzyme).
With `C=CC(=O)NC(CC(=C)C)C(=O)N1CC(C(=O)NC(CCSC)C(=O)NC)C(c2cccc(C(F)(F)F)c2)C1` (centres unmarked) the IC50 was greater than 100000 nM (Replicase polyprotein 1ab main protease).

Excerpt of the above:
With `Cc1ccccc1N1C(=O)/C(=C/c2ccc(OCc3cccc(C(=O)O)c3)cc2)C(=O)NC1=S` the IC50 was 7560 nM (Tyrosine-protein phosphatase non-receptor type 22 (Ptpn22, Mus musculus, UniProt P29352); phosphatase activity, inhibitor).
The IC50 of `Cc1cnc(N)c(S(=O)(=O)N(C)CC(=O)Nc2ccn(C)c(=O)c2)c1` is reported as 165 nM (Dihydrolipoyl dehydrogenase; enzyme activity, inhibitor; with: 50 nM enzyme).
`C=CC(=O)NC(CC(=C)C)C(=O)N1CC(C(=O)NC(Cc2ccccc2)C(=O)NC)C(c2cccc(C(F)(F)F)c2)C1` (centres unmarked) has an IC50 of 19500 nM (rep main protease).
The IC50 of `CC(C)c1nc2cc(O)ccc2c(=O)n1-c1ccc(C#N)cc1` is reported as 350 nM (Transient receptor potential cation channel subfamily V member 1 (TRPV1, Homo sapiens, UniProt Q8NER1); calcium signal, antagonist, fluorescence).
For `Cc1cnc(N)c(S(=O)(=O)N(C)CC(=O)Nc2ccc(N3CCOCC3)c(Cl)c2)c1`, the IC50 was 56 nM (Dihydrolipoyl dehydrogenase; enzyme activity, inhibitor; with: 50 nM enzyme).
